Assay results from different studies.
Each line is one published result; not all experiments were run side by side. Numbers after ± are the reported error.

| Structure (SMILES) | assay | test system | setting | how to read | quantity | result |
| --- | --- | --- | --- | --- | --- | --- |
| CC(=O)[CH](C(C)=O)[Pt-2]1([S+](C)C)[O]C(C)=CC(C)=[O+]1 (stereo not drawn) | – | MCF7, BALB/c nude mice, xenograft | intravenous, 10 mg/kg, 30 days, single dose | – | tumour volume | 115 ± 38 mm³ |
| CCOc1cc(C(C)(C)C)ccc1C1=N[C@@H](c2ccc(Cl)cc2)[C@@H](c2ccc(Cl)cc2)N1C(=O)N1CCN(CC(=O)NCCOCCOCCOCCNC(=O)CN2CCN(C(=O)N3C(c4ccc(C(C)(C)C)cc4OCC)=N[C@@H](c4ccc(Cl)cc4)[C@H]3c3ccc(Cl)cc3)CC2=O)C(=O)C1 | – | nude mice, A549 xenograft | intraperitoneal, 20 mg/kg twice daily, 21 days | – | tumour growth inhibition | 45.6% |
| COc1cc(OC)c(F)c(/C=C/c2cnc3ccn(S(=O)(=O)c4cn(CCF)cn4)c3n2)c1F | – | nude mice, SNU-16 xenograft | oral, 10 mg/kg once daily, 21 days | – | tumour growth | inhibited |
| CCCCCc1ccc(S(=O)(=O)N2CC2C(=O)OC)cc1 (stereo not drawn) | – | mice, Lewis lung carcinoma | intraperitoneal, 5 to 15 mg once daily, 16 days | – | tumour growth inhibition | 65 to 71% |
| N#Cc1cccc(-c2ccc(=O)n(Cc3cccc(-c4ncc(OCC5CCN(CC(=O)NCCOCCNc6ccc7c(c6)C(=O)N(C6CCC(=O)NC6=O)C7=O)CC5)cn4)c3)n2)c1 (stereo not drawn) | – | mice, EBC-1 xenograft | intraperitoneal, 10 mg/kg once daily, 10 days | – | tumour growth inhibition | 68.2% |
| O=C(Nc1ccc(C(F)(F)F)cc1Cl)c1cc(Cl)ccc1O | – | mice LuCaP sample A PDX | oral, 150 mg/kg | relative to: vehicle | tumour growth inhibition | ~85% |
| CCCCCCCCn1c(-c2cccnc2)nc(-c2ccc(C)cc2)c1-c1ccc(C)cc1 | – | Ehrlich ascites carcinoma-bearing mice | intraperitoneal, 50 mg/kg every other day, day 26 | relative to: vehicle | tumour size reduction | ~50% |
| CCc1nnc(NS(=O)(=O)c2ccc(NC(=S)NC(=O)/C=C/c3ccc(F)cc3)cc2)s1 | – | BE(2)-C xenograft, athymic nude mice | intraperitoneal, 20 mg/kg daily, 3 weeks, days 17 to 21 | relative to: vehicle | tumour volume | decreased |
| COc1cccc2c1C(=O)c1c(O)c3c(c(O)c1C2=O)C[C@@](O)(C(=O)CO)C[C@@H]3O[C@H]1C[C@H](N)[C@@H](O)[C@H](C)O1 | – | nude mice, KB xenograft | intravenous, 8 mg/kg single, day 25 | – | tumour volume | 1300 mm³ |
| COc1ccc(Nc2nc(Nc3ccc(OCCOCC[18F])cc3)ncc2Br)cc1 | – | S180 tumour-bearing mice | dose not given, 30 min, with: PF-562271 33 mg/kg po | relative to: no blocker | tumour uptake reduction | ~88% |
| O=C1N[C@](c2ccc(N3CCOCC3)cc2)(c2ccsc2)CC(O)=C1Sc1ccccc1Cl | – | C57BL/6 mice, B16-F10 allograft | oral or intraperitoneal, 100 mg/kg once daily | – | tumour growth | no inhibition |
| COC(=O)N[C@H]1CC[C@@H](Nc2cc(NCc3ccccc3F)n3ncc(C(C)C)c3n2)CC1 | – | mice with HCT-116 xenograft | oral, 15 mg/kg twice daily, 14 days | – | tumour growth delay | 6.6 ± 1.2 days |
| COc1cc2c(Oc3ccc(Nc4nn(C)cc4C(=O)NC4CCCCC4)cc3F)ccnc2cc1OCCCCCCC(=O)NO | – | BALB/c nude mice, HCT-116 xenograft | intraperitoneal, 1 to 20 mg/kg, every 3 days, five doses | relative to: vehicle | tumour volume | decreased |
| CN1CCc2cc(Nc3ncc(C(F)(F)F)c(NCc4cc[nH]n4)n3)ccc2C1 | – | mice, GL261 glioma xenograft | oral, 50 mg/kg daily | – | tumour growth inhibition | 56.1% |
| O=C(Cc1ccc(F)cc1)NCCOc1ccc(-c2ccc(F)cc2)nn1 | – | mice MC38 colon tumour | oral, 20 mg/kg daily, 21 days | – | tumour growth inhibition | 45.2% |
| C[N+]1=C(C=CC=CC=C2N(CCCCCC(=O)NCCCC[C@H](NC(=O)[C@@H](CCC(=O)O)NC(=O)[C@@H](CCC(=O)O)NC(=O)[C@@H](CCC(=O)O)NC(=O)CCCCCNC(=O)C3CCC(CNC(=O)CC[C@H](NC(=O)N[C@@H](CCC(=O)O)C(=O)O)C(=O)O)CC3)C(N)=O)c3ccc4ccccc4c3C2(C)C)C(C)(C)c2c1ccc1ccccc21 (stereo partly drawn) | FMT imaging | mice bearing PC-3 flu tumours, PC-3 flu tumour | 1 nmol | – | tumour uptake | 4.51 ± 0.77 pmol/g |
| Cc1cc(N)c2ccccc2[n+]1CCCCCCCCCCCCCC[n+]1c(C)cc(N)c2ccccc21 | – | NOD/SCID mice, NB12 neuroblastoma xenograft | intraperitoneal, 2.5 mg/kg every other day, 14 days | relative to: vehicle | tumour weight reduction | 50.6% |
| CCNC(=O)c1noc(-c2cc(C(C)C)c(O)cc2O)c1NC(=O)CCN1CCOCC1 | – | nude mice, GTL-16 xenograft | intraperitoneal, 90 mg/kg, daily ×5 per week for 3 weeks | – | tumour volume inhibition | 61% |

For quick reference, copied from above:
| Structure (SMILES) | assay | test system | setting | how to read | quantity | result |
| --- | --- | --- | --- | --- | --- | --- |
| CCCCCCCCn1c(-c2cccnc2)nc(-c2ccc(C)cc2)c1-c1ccc(C)cc1 | – | Ehrlich ascites carcinoma-bearing mice | intraperitoneal, 50 mg/kg every other day, day 26 | relative to: vehicle | tumour size reduction | ~50% |
| CCc1nnc(NS(=O)(=O)c2ccc(NC(=S)NC(=O)/C=C/c3ccc(F)cc3)cc2)s1 | – | BE(2)-C xenograft, athymic nude mice | intraperitoneal, 20 mg/kg daily, 3 weeks, days 17 to 21 | relative to: vehicle | tumour volume | decreased |
| COc1cccc2c1C(=O)c1c(O)c3c(c(O)c1C2=O)C[C@@](O)(C(=O)CO)C[C@@H]3O[C@H]1C[C@H](N)[C@@H](O)[C@H](C)O1 | – | nude mice, KB xenograft | intravenous, 8 mg/kg single, day 25 | – | tumour volume | 1300 mm³ |
